Measured values pooled from the literature.
Protocols differ between the studies behind these lines. Numbers after ± are the reported error. ≈ marks a conversion by molar mass, not a printed value.

| Molecule | organism | assay | test system | setting | MIC |
| --- | --- | --- | --- | --- | --- |
| CC1(C)SC2C(NC(=O)C(NC(=O)C3=C(O)CNC3=O)c3ccccc3)C(=O)N2C1C(=O)O (centres unmarked) | Escherichia coli | broth microdilution | BW25113, Mueller-Hinton broth | added: 2,2'-bipyridyl 30 µg/mL | 50 µg/mL (≈ 105 µM) |
| CCOC(=O)c1c(N)csc1-c1cn(-c2ccccc2)nc1-c1ccc(C)cc1 | Candida albicans | broth microdilution | clinical urinary isolate | compound gamma-irradiated 20 kGy | 0.125 ± 0.4 µg/mL (≈ 0.31 µM) |
| C[C@@H](c1ncncc1F)[C@](O)(Cn1cncn1)c1ccc(F)cc1F | Acanthamoeba castellanii | parasite growth, resazurin | – | 96 h | 0.03 µg/mL (≈ 0.0859 µM) |
| CC1NC(=O)C(C(=O)NC(C(=O)NC2C(=O)N3C2SC(C)(C)C3C(=O)O)c2ccccc2)=C1O (centres unmarked) | Escherichia coli | broth microdilution | BW25113, Mueller-Hinton broth | – | 200 µg/mL (≈ 409 µM) |
| OC(Cn1cncn1)(Cn1cncn1)c1ccc(F)cc1F | Acanthamoeba castellanii | parasite growth, resazurin | – | 96 h | > 64 µg/mL |
| Cc1ccc(S(=O)(=O)N2C(=O)CSC2c2ccc(O)cc2)cc1 (centres unmarked) | Lacticaseibacillus casei | broth microdilution | NCIM 2651 | – | 16 µg/mL (≈ 45.8 µM) |
| pneumocandin B0 | Candida albicans | broth microdilution, resazurin | ATCC 10231 | 24 h, 35 °C | 0.8 µg/mL |
| CC1(C)S[C@@H]2[C@H](NC(=O)[C@H](N)c3ccccc3)C(=O)N2[C@H]1C(=O)O | Streptococcus mutans | serial dilution | ATCC 25175 | 24 h, 37 °C | 5 µg/mL (≈ 14.3 µM) |
| Cc1ccc(S(=O)(=O)N2C(=O)CSC2c2ccccc2Cl)cc1 (centres unmarked) | Lacticaseibacillus casei | broth microdilution | NCIM 2651 | – | 16 µg/mL (≈ 43.5 µM) |
| CC1(C)SC2C(NC(=O)C(NC(=O)C3=C(O)CN(c4ccccc4)C3=O)c3ccccc3)C(=O)N2C1C(=O)O (centres unmarked) | Escherichia coli | broth microdilution | BW25113, Mueller-Hinton broth | 18 h, without clavulanic acid | 12.5 µg/mL |
| Cc1ccc(S(=O)(=O)N2C(=O)CSC2c2cccc(Cl)c2)cc1 (centres unmarked) | Lacticaseibacillus casei | broth microdilution | NCIM 2651 | – | 16 µg/mL (≈ 43.5 µM) |
| CC(C)(C)OCC1NC(=O)C(C(=O)NC(C(=O)NC2C(=O)N3C2SC(C)(C)C3C(=O)O)c2ccccc2)=C1O (centres unmarked) | Escherichia coli | broth microdilution | BW25113, Mueller-Hinton broth | added: 2,2'-bipyridyl 30 µg/mL | 25 µg/mL (≈ 44.6 µM) |
| Cc1ccc(S(=O)(=O)N2C(=O)CSC2c2ccccc2C)cc1 (centres unmarked) | Lacticaseibacillus casei | broth microdilution | NCIM 2651 | – | 64 µg/mL (≈ 184 µM) |
| LSTFFRLFN | Streptococcus mutans | broth microdilution | peptide, GS-5 | 24 h, 37 °C, planktonic, anaerobic | > 256 µg/mL |
| CC(C)C1NC(=O)C(C(=O)NC(C(=O)NC2C(=O)N3C2SC(C)(C)C3C(=O)O)c2ccccc2)=C1O (centres unmarked) | Escherichia coli | broth microdilution | BW25113, Mueller-Hinton broth | – | 100 µg/mL (≈ 194 µM) |
| pneumocandin J | Candida albicans | broth microdilution, resazurin | ATCC 10231 | 24 h, 35 °C | 1.6 µg/mL |
| Cc1ccc(S(=O)(=O)N2C(=O)CSC2c2cccc(C)c2)cc1 (centres unmarked) | Lacticaseibacillus casei | broth microdilution | NCIM 2651 | – | 64 µg/mL (≈ 184 µM) |
| CC1(C)SC2C(NC(=O)C(NC(=O)C3=C(O)C(Cc4ccc(O)cc4)NC3=O)c3ccccc3)C(=O)N2C1C(=O)O (centres unmarked) | Escherichia coli | broth microdilution | BW25113, Mueller-Hinton broth | – | 200 µg/mL (≈ 344 µM) |
| O[C@@](Cn1cnnn1)(c1ccc(F)cc1F)C(F)(F)c1ccc(-c2ccc(OCC(F)(F)F)cc2)cn1 | Acanthamoeba castellanii | parasite growth, resazurin | – | 96 h | 0.03 µg/mL (≈ 0.0569 µM) |
| Cc1ccc(S(=O)(=O)N2C(=O)CSC2c2ccc(Cl)cc2)cc1 (centres unmarked) | Lacticaseibacillus casei | broth microdilution | NCIM 2651 | – | 16 µg/mL (≈ 43.5 µM) |

For quick reference, copied from above:
| Molecule | organism | assay | test system | setting | MIC |
| --- | --- | --- | --- | --- | --- |
| CC1NC(=O)C(C(=O)NC(C(=O)NC2C(=O)N3C2SC(C)(C)C3C(=O)O)c2ccccc2)=C1O (centres unmarked) | Escherichia coli | broth microdilution | BW25113, Mueller-Hinton broth | – | 200 µg/mL (≈ 409 µM) |
| OC(Cn1cncn1)(Cn1cncn1)c1ccc(F)cc1F | Acanthamoeba castellanii | parasite growth, resazurin | – | 96 h | > 64 µg/mL |
